Results gathered from unrelated publications.
± marks the error that the study gave.
Cell line: A-375

| SMILES | assay | conditions | measurement | result |
| --- | --- | --- | --- | --- |
| CCn1cc(-c2cc(Cn3ccoc3=N)cc3c2CCN([C@@H](C)c2cc(OC)ccn2)C3=O)c(C(F)(F)F)n1 | cell growth, inhibitor | 120 h | EC50 | > 30 µM |
| O=C(NN=Cc1ccc(Br)cc1)C1CC(=O)N(c2ccc(F)cc2F)C1 (stereo not shown) | cell viability, MTT | 72 h | EC50 | 14.5 ± 1.5 µM |
| O=C(NOC[C@H](O)CO)c1ccc(F)c(F)c1Nc1ccc(I)cc1F |  | 0.625 µM, 72 h | viability | 14.2% |
| O=C(NN=Cc1ccc([N+](=O)[O-])s1)C1CC(=O)N(c2ccc(F)cc2F)C1 (stereo not shown) | cell viability, MTT | 72 h | EC50 | 6.4 ± 1.1 µM |
| COc1cnc2cccc(N3CCc4c(cc(Cn5ccnc5C)cc4-c4cn(C)nc4C(F)(F)F)C3=O)c2c1 | cell growth, inhibitor | 120 h | EC50 | > 30 µM |
| COc1cccc2c1C(=O)c1c(O)c3c(c(O)c1C2=O)C[C@@](O)(C(=O)CO)C[C@@H]3O[C@H]1C[C@H](N)[C@H](O)[C@H](C)O1 | cell viability, MTT | 72 h | EC50 | 0.007 ± 0.0026 µM |
| COc1cc2ncnc(Nc3ccc(Oc4ccccc4)cc3C)c2cc1OC |  | 0.3 µM, 72 h | viability | 91.7% |
| Cc1cnc(NC2CCOCC2)nc1-n1cnc(C(=O)NC(CN)c2cc(F)cc(Cl)c2)c1 (stereo not shown) | flow cytometry | 1 µM, 48 h | S phase cells | 4.6% |
| Cn1cnc2c(F)c(Nc3ccc(Br)cc3F)c(C(=O)NOCCO)cc21 |  | 5 µM, 72 h | viability | 17.9% |
| COc1cc(C(=O)c2nc(-c3cccc4c3CCN4)c[nH]2)cc(OC)c1OC | cell proliferation, MTS | 72 h | IC50 | 0.0224 ± 0.0026 µM |

For quick reference, copied from above:
| SMILES | assay | conditions | measurement | result |
| --- | --- | --- | --- | --- |
| O=C(NOC[C@H](O)CO)c1ccc(F)c(F)c1Nc1ccc(I)cc1F |  | 0.625 µM, 72 h | viability | 14.2% |
